Measured values of several laboratories.
Numbered parts are unrelated; each lists some results of a single study. Changes are numbered by the printed parent chain.

Block 1
Target: RING finger protein unkempt homolog, zinc fingers 1-6, SBP tag (UNK, Homo sapiens, UniProt Q9C0B0, residues 30-357)
UniProt Q9C0B0, sequence (30-357, looked up): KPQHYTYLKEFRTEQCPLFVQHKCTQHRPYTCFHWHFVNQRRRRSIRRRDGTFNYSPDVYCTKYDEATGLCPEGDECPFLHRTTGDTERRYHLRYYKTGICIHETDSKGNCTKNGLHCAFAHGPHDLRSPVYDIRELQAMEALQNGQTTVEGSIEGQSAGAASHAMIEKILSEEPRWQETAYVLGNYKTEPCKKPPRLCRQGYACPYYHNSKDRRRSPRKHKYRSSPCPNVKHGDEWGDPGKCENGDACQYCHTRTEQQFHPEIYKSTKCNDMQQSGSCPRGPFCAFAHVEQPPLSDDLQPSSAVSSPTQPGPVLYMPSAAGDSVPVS
Method: RNA Bind-n-Seq
Molecule type: RNA
Matrix: in vitro
Tested at: 100 nM
Setting: RNA with constant flanks, vertebrate orthologous sites, ends assumed
Reference: input RNA pool
Reading: higher = stronger binding
Measurement: bound/input enrichment
Shared flanks, not repeated: GGGAGUUCUACAGUCCGACGAUC … CAACAGAGGAUUGAGCAUCA
Sequence = UCAUAAUCACUCUAAUUGUAAUCUGAAUAAAGUGUAACAUGUGUAGCCUUUUGUAUAAAAUAGACAAAUAGAAAUGGUCCAAUUAGUUUCCUUUUUAAUAUGCUUAAAAUAAGCAGGUGG; value = 2.43 ratio
Sequence = AAGGAGCAGCUUAGGCUGCUUGAGCUUUGGGGAAAUGAGCUUUUGCUUUUUGUAUUUAAAUAGGAUACUUUUAUAUGAUGGGUGCUUUUGAGUGACUGCAGCAGGCUCUAUUUCAGAGGU; value = 0.811 ratio
Sequence = CACGUCUGGUGAUAUUUGGCCUGGCCUCUCAGCUUAUGAUAAUAGUCCCAGAUCACCCCAUAGUCCCUCACCAAUCGCCACGCCACCUAGUCAGAGUUCAUCGUGCUCUGAUGCCCCCAU; value = 0.979 ratio
Sequence = UGCAUUAUUUGACCAGAGUUGAGGUGACAGAAUUUGAAGACAUCAAAUCAGGUUACAGAAUAGAUUUUUAUUUUGAUGAGAAUCCGUACUUUGAAAAUAAAGUUCUCUCCAAAGAGUUUC; value = 0.65 ratio
Sequence = CACACUAUAUUGUGGCAUUUAGUCAACAUGGAAGUAGACCAGCUCUGCAGAUUUGAAAUUUAGAUUUUUUUAAAUUAUGUACUGGGGACAGGUUUUUGUCGCUUUACAUUGCUUCCUAGU; value = 1.68 ratio
Sequence = CAUUUUUUAAUUUUCAUUUUAUUUUAUACAAUGUGUAGACAGUUCCCUGUUCUCUGCAUUUAGAAGUAUAAACAAUAUAAAUCUGUUAAUUCUGUAAGUAAUUUUUAUAAUUAUGAUGUA; value = 0.424 ratio
Sequence = CUUAUUUCUUCUUUCCUUACUUUCUUUUUUCUUUCGUUUCUUUUUUUUUUUUUUUUUUGGUAGUUGUUGUUACCCACGCCAUUUUACGUCUCCUUCACUGAAGGGCUAGAGUUUUAACUU; value = 3.46 ratio
Sequence = ACUCUAGUUCUUAACAACCAACACUCCUAAAAGAGUUAGAAAAAAGUUUACAACAUAAUCUAGUUUACAAAGAAGUCUUGUGCUAGAAUACUUUUUAAAAAGUAUUUUUGAAUACCAUUA; value = 0.789 ratio

Block 2
Target: Sal-like protein 4, full length isoform A (SALL4, Homo sapiens, UniProt Q9UJQ4, residues 1-1053)
UniProt Q9UJQ4, sequence (whole entry, looked up): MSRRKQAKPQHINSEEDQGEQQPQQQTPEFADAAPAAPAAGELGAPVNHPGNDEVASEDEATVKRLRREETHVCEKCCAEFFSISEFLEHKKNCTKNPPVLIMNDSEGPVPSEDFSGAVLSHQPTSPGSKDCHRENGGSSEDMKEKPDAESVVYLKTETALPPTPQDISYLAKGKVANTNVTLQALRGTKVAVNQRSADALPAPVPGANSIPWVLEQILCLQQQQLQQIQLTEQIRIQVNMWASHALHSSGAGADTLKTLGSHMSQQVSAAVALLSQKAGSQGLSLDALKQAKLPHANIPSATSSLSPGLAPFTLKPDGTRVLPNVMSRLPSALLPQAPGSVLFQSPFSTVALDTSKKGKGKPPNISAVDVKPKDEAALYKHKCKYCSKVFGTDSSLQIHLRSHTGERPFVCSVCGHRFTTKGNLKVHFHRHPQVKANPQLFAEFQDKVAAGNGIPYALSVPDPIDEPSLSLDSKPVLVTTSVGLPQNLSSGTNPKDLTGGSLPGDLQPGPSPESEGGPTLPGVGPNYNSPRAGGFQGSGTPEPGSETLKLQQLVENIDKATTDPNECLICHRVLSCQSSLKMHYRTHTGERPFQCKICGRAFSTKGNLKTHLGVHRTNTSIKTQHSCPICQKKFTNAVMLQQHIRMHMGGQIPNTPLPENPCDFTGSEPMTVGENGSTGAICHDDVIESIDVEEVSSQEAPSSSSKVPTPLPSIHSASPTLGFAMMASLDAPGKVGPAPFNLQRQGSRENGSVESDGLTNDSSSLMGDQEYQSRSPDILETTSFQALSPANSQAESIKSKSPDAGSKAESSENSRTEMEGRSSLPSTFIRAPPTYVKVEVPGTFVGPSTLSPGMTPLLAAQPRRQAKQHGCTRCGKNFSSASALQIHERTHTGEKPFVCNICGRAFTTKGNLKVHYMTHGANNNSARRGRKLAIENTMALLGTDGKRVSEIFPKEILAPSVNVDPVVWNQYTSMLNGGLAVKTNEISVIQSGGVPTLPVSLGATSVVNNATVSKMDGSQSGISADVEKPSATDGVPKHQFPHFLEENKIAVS
Method: universal PBM
Molecule type: double-stranded DNA, one strand shown
Matrix: in vitro
Tested at: 600 nM
Setting: 8-mer, flanks averaged, mean of replicates
Reading: higher = stronger binding
Measurement: E-score
Sequence = CACCCGTG; value = -0.233
Sequence = GTTTTCAA; value = 0.232
Sequence = CTACGGGA; value = -0.228
Sequence = CCACCTCG; value = -0.258
Sequence = CGACGACC; value = -0.144
Sequence = ATAAACTA; value = 0.349
Sequence = ACTGCGAG; value = -0.171
Sequence = AACTACAA; value = 0.115

Block 3
Target: Fragile X messenger ribonucleoprotein 1, C-terminal low-complexity region (Fmr1, Mus musculus, UniProt P35922)
Method: RNA Bind-n-Seq
Molecule type: RNA
Matrix: in vitro
Tested at: 200 nM
Setting: whole 134-nt RNA, ends assumed
With: 150 mM KCl
Reference: input library
Reading: higher = stronger binding
Measurement: log2 enrichment
Shared flanks, not repeated: GGGAGUUCUACAGUCCGACGAUC … UGGAAUUCUCGGGUGUCAAGG
Sequence = AAACAGCUCUAUAACAAAAUACAAUGCGGGUUCAUGUUAAUGUUUUUAUCUCUAACAGGUUGGUUUCAGUGCUGAUGAAACUUGGGACUC; value = -0.638
Sequence = UGUGCUACACAUCGUAUGUACCGAAUCGGGGUUUUUUUGGGGUUUUUUUGGGGUUUUUGGGGAAAGUAUUAUGUUACGCCGUUCGGAUCU; value = 0.36
Sequence = CACAGACAACACGCACCCACACAGACACAGAGGGAAGGGGUUGGGAUGGGGACAGGGUGCACAGCAGGGCGGAGUAGGACCCCAGCCCCU; value = 1.2
Sequence = GUCCUGUGCUACACAUCGUAUGUACCGAAUCGGGGAGGGGAAAGGGGAAAAAAAGGGGAAAGUAUUAUGUUACGCCGUUCGGAUCUGCAC; value = 0.166
Sequence = CUCAAGUCCUGUGCUACACAUCGUAUGUACCGAAUCGGAGGUGGAAAAAAAGGAAAGUAUUAUGUUACGCCGUUCGGAUCUGCACUUCCA; value = -0.515
Sequence = UUCCGCUGUCUUUUCUGUCUACAGUUUGCGAUCCCCGCGUCCAGGAUGGAGCAGCUGAACGAACUGGAGCUGCUGAUGGAGAAGAGUUUU; value = -0.797
Sequence = UUGUUUAUUCUGUGUCUUUUGCCUCCUUUCCUACAGAUGUCCGGCAGGAUAAUGCUGCUGGCAGAGCUGGCUCCAGUAGCCUUACACAGG; value = 0.503
Sequence = ACCACUGCUACAGUCACCACCACCCAGGCCUCCUAUGCAGCUCAGUCUGCAUAUGGCACUCAGCCUGCUUAUCCAGCCUAUGGGCAGCAG; value = 0.0438

Mixed results
Starting sequence: PafA, mature enzyme, eGFP fusion (Elizabethkingia meningoseptica, UniProt Q9KJX5); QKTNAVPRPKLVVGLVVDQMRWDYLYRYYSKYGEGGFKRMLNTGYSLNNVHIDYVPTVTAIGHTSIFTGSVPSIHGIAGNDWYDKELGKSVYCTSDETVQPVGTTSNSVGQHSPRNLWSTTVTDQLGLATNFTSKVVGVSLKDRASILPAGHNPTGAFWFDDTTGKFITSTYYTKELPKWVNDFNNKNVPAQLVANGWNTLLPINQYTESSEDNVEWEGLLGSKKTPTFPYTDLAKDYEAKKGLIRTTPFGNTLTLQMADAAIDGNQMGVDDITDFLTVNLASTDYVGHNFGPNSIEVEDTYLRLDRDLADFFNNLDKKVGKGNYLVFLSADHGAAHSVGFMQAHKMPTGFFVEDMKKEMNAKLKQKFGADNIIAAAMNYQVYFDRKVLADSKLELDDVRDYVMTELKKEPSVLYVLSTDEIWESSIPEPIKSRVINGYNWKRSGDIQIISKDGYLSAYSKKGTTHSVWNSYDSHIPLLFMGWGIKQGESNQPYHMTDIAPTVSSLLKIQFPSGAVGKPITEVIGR
Variant = S338V; target = inorganic phosphate, free oxyanion; assay = microfluidic competitive inhibition; system = in vitro, cell-free expressed; conditions = not given, derived from inhibition constants, unchanged parent 615000 nM; how to read = lower = stronger binding; measurement = phosphate dissociation constant; value = 498 µM
